Published values from different studies.
Numbered parts are unrelated; each lists some results of a single study.

Block 1
Target: Ras GTPase-activating protein-binding protein 1, C-terminal RGG region (G3BP1, Homo sapiens, UniProt Q13283)
Chain of UniProt Q13283 (whole entry, looked up): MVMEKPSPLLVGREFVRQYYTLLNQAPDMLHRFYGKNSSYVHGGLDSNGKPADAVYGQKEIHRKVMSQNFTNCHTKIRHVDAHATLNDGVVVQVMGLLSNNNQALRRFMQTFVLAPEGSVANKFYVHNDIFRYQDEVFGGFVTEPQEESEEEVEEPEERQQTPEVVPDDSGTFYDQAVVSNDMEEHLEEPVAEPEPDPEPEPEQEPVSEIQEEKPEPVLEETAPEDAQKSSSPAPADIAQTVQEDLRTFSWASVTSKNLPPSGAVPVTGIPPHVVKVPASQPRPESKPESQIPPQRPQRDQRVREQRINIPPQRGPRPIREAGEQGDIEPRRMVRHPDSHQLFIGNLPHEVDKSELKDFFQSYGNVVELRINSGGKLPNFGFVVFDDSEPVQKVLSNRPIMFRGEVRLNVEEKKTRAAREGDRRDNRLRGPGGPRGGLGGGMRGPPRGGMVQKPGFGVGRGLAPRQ
Method: RNA Bind-n-Seq
Molecule type: RNA
Matrix: in vitro
Concentration: 1 µM
Notes: whole 134-nt RNA, ends assumed
Added: 150 mM KCl
Reference: input library
Reading: higher = stronger binding
Measurement: log2 enrichment
Shared flanks, not repeated: GGGAGUUCUACAGUCCGACGAUC … UGGAAUUCUCGGGUGUCAAGG
CUGUGCUACACAUCGUAUGUACCGAAUCGGGAAAAAAAGGGGAAAAAAAGGAAAAAAAGGGAAAGUAUUAUGUUACGCCGUUCGGAUCUG: -1.57
UCCUGUGCUACACAUCGUAUGUACCGAAUCGGGAAAAAAGGAAAAAAGGGGAAAAAAGGGAAAGUAUUAUGUUACGCCGUUCGGAUCUGC: -1.22
AAGUCCUGUGCUACACAUCGUAUGUACCGAAUCGGUUUUUGGUUUGGAAAAAAAGGAAAGUAUUAUGUUACGCCGUUCGGAUCUGCACUU: -2.26
AAGUCCUGUGCUACACAUCGUAUGUACCGAAUCGGUUUUUUUGGAAAGGUUUUUGGAAAGUAUUAUGUUACGCCGUUCGGAUCUGCACUU: -2.16
CAAGUCCUGUGCUACACAUCGUAUGUACCGAAUCGGUUUGGUUUUUGGUUUUUGGAAAGUAUUAUGUUACGCCGUUCGGAUCUGCACUUC: -1.4

Block 2
Target: RNA binding protein fox-1 homolog 2, RRM domain, GST-SBP tag (RBFOX2, Homo sapiens, UniProt O43251-10, residues 100-194)
Method: RNA Bind-n-Seq
Molecule type: RNA
Matrix: in vitro
Concentration: 365 nM
Notes: natural RNA segment, single round, ends assumed
Reference: no-protein control
Reading: higher = stronger binding
Measurement: RBNS enrichment (R)
Shared flanks, not repeated: GGGAGUUCUACAGUCCGACGAUC … UGGAAUUCUCGGGUGCCAA
Residues (chain): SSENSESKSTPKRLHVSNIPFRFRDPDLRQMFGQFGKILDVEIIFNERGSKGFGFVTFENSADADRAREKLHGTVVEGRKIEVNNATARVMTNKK
CAGGGGCCUAGCCCUGGGCAUAUUCAUUUGUUUGCUUCUCUGGGACAGUAUGCCCUGCCUUCCCUGGGCCAAAAGAAAUCCGUGCUGUCACUGAUGCUGGCGAUGAUGCA: 0.645
AAUGCCCACUGCCUGUAACAGCCACCUGGAGAACUUCAUAAAGAUGUCUCACAGCCCUGGGGACACCUGCCCAGUGGGCCCCAGCCCUACAGGGACUGGGCAAAGAUGAU: 0.484
CCGUACAAUAUUAAUGCAUGCGAUUCCAUAAUGCUUAGUGAACUGUAUGAAUAUUACUCAAAGUUAUGUUAGUCUUUUUUUCCGACUUGGUUCUUGUCAGCUAGGUUUAA: 9.03
CCAAGUCUUGUACCAAGGGCAGUGCACACUAGGUCUAAGUUGGCAUAAACCUUCAUAUUCUGUCUGUCUCUGUUUGGUUUUGUUUUUAAUAUAGUGUGCCAAUUUUGUGA: 1.35
UGUCUCAGGUCGUUGUCAUUUGCCCUCCCUCCAAUUUUGCUUCCCACCCCCACCACUCUACUGAAAGAAGAGAGCAACAGAGGUGAGGACCUGCUCUUCUCUAGUUCCAG: 0.322
CAGUGUCAAUGUCAUUGUUAACUAUAUUUCAUAUUUGAGGUCUCAUUGUUUUCAAAUAAACAGUGUUUUCCAUGACUGAGAUAUUUAUUUUUGGGAAAGCAACGAGGUAA: 0.414

Block 3
Target: Histone acetyltransferase KAT6A, winged helix 1, GST fusion (KAT6A, Homo sapiens, UniProt Q92794, residues 1-85)
Method: protein binding microarray
Molecule type: double-stranded DNA, one strand shown
Matrix: in vitro
Concentration: not given
Notes: 8-mer, flanks averaged, mean of 2 arrays, mostly near background
Reference: not given
Reading: higher = stronger binding
Measurement: E-score
Construct (chain): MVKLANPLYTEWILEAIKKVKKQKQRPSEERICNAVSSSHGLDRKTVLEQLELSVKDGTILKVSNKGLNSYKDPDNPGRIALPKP
GGTTGATA: -0.0836
AAGCATTC: -0.0543
CCAGATAC: -0.113
CTATCTTA: -0.149
CAAAGACC: -0.0169
GCTGTCGA: 0.0496
ATATCAGG: -0.13

Single results of other studies
PhoQ, residues 284 288 289 292 302 303 MLMVEA
fold induction (PhoP, residues 12 14 15 18 19 QQAYL (Escherichia coli, UniProt P23836); Sort-seq, refers to: YFP reporter; E. coli; PhoQ-PhoP variant library, added: 10 µM Mg2+; reference: high Mg2+ state, higher = stronger signaling): 27.6
